Assay results collected from several papers.
Compare with care: the assays were run in different laboratories. “And” joins repeats or separate records; there may be more than shown. ± marks the error that the study gave. In brackets after ≈: the same amount, converted by molar mass.

SMILES	test	test system	conditions	how to read	endpoint	value
C=CC(=O)Nc1cc(Nc2nccc(-c3cn(C)c4ccccc34)n2)c(OC)cc1N(C)CCN(C)C	measured: Thrombocytopenia grade ≥3	EGFR-mutant MET-altered NSCLC	oral, study	–	patients with treatment-related AEs	0%
CCOc1c([C@H](C)n2nc(C)c3c(N)ncnc32)cc(Cl)c(F)c1[C@@H]1CNC(=O)C1	–	patients, monotherapy	oral, 10 mg once daily, cycle 1 day 1	–	AUC(0-last)	3.26 ± 1.46 µM·h
Cn1cc([C@H]2C[C@H]3CSC(N)=N[C@@]3(c3ccc(F)cc3F)CO2)cn1	–	male 129/SVE mouse, plasma	subcutaneous, 3 mg/kg, 1 h	–	plasma concentration	0.164 µM
O=C(N[C@H](Cc1c[nH]c2ccccc12)C(=O)Nc1ccncc1)c1ccc(-c2ccc(F)c(Cl)c2)cc1F	–	Swiss Webster mouse, female, lung	oral, 50 mg/kg, 2 h, 20% HPβCD vehicle	–	concentration	9.62 µM
COc1cccc(-c2n[nH]c(SCc3ccccn3)n2)c1OC	–	Sprague-Dawley rats, both sexes	oral dietary, 30 mg/kg/day, day 90, 1 h	–	plasma concentration	1360 ng/mL
CCCCOc1ccc([C@H]2CC[C@H](CCC)CC2)c(F)c1F	–	rat, placenta	10 ng/mL in perfusate, low dose, mixture of 21 LCMs	–	median placental accumulation	16.9 ng/g
C[C@@H](Oc1ccc(S(C)(=O)=O)cc1C(=O)N1C[C@@H]2C[C@]2(c2cc(C(F)(F)F)on2)C1)C(F)(F)F	–	elderly humans, plasma	oral, 25 mg once daily, single dose, geometric mean	–	half-life	57.3 h
CNCc1ccc(-c2[nH]c3cc(F)cc4c3c2CCNC4=O)cc1	–	patients	oral, 600 mg twice daily, grade 2	–	abdominal pain incidence	0%
O=C(Nc1nc2cccc(-c3ccc(CN4CCS(=O)(=O)CC4)cc3)n2n1)C1CC1	measured: constipation	human rheumatoid arthritis patients	oral, 30 mg once daily, 4 weeks, regardless of relatedness	–	treatment-emergent adverse events	0%
CCN1/C(=C/C(C)=O)Sc2ccc(F)cc21	–	cynomolgus monkey	oral, 10 mg/kg, 0.5 h post-dose	reference: pre-dose	mean blood pressure change	104 ± 6.6%
FC(F)(F)c1ccc(CNc2ccc(Cc3c[nH]c4ncc(Cl)cc34)cn2)cn1	measured: maculo-papular rash	human, advanced solid tumours, all patients	oral, 1000 mg/day, any grade	–	treatment-related adverse events	9%
C1=C/COCc2cc(ccc2OCCN2CCCC2)Nc2nccc(n2)-c2cccc(c2)COC/1	–	rat plasma	600 ng/mL, 1 months, -20 °C, long-term storage	reference: nominal concentration	stability relative error	0.79%
CCc1cc(C(=O)NC)c2nccc(N3CCc4c(cc(Cn5ccnc5)cc4-c4cn(C)nc4C(F)(F)F)C3=O)c2c1	–	Sprague Dawley rats	oral, 100 mg/kg once daily, 7 days	reference: vehicle	serum MCHC change	0.08%
N#Cc1ccc2c(c1)[C@H]1CCCN(C(=O)c3ccc4[nH]cnc4c3)[C@H]1C2	–	human males	40 mg, end of trial	–	total testosterone level	16.8 nmol/L
CN1C(=O)[C@@H](NC(=O)c2nnc(Cc3ccccc3)[nH]2)COc2cccnc21	phase I single ascending dose	human, male and female	oral, 400 mg, fasted	–	participants with any TEAE	33.3%
C=CCN1CC(=O)N2[C@@H](Cc3ccc(O)cc3F)C(=O)N(Cc3cccc(N4CC(N5CCN(CC)CC5)C4)n3)C[C@@H]2N1C(=O)NCc1ccccc1	–	advanced solid tumour patients	oral, 45 mg twice daily, any grade, dose-escalation	–	treatment-related AST increased	0%
Cn1cc(Nc2nccc(-c3ccc4c(c3)CN(C3COC3)CC[C@H]4NC(=O)c3cn(C(C)(C)C)nn3)n2)cn1	–	human, whole blood	50 mg twice daily, day 14	reference: pre-dose baseline	B cell count change	35.1%
CCC(C)n1ncn(-c2ccc(N3CCN(c4ccc(OCC5COC(Cn6cncn6)(c6ccc(Cl)cc6Cl)O5)cc4)CC3)cc2)c1=O (stereo not drawn)	measured: red blood cells in urine	healthy human participants	oral, 200 mg, compound alone cohort	–	adverse event incidence	7%
O=C(O)CCC(=O)O.[2H]C([2H])([2H])Oc1cc(C)c2[nH]ccc2c1CN1CC[C@@H](C2CC2)C[C@H]1c1ccc(C(=O)O)cc1	multiple ascending dose	healthy Chinese subjects	100 mg twice daily	–	subjects with dental ulcer TEAE	12.5%
C[C@@H]1CCO[C@H]2Cn3cc(C(=O)NCc4ccc(F)cc4F)c(=O)c(O)c3C(=O)N12	–	human paediatric patients, weight sample D to under sample E kg, plasma	oral, 35 mg film-coated tablet, 24 h, steady state, geometric mean, population PK post-hoc, N 5	–	trough concentration (C24)	729 ng/mL
CCCOc1ccc(NC(=O)CN2CCN(C)CC2)cc1-c1nc(CC)c(CC)c(=O)[nH]1	–	healthy Chinese men	10 mg, supine or semi-supine, with: placebo	–	AUEC(0-4 h) systolic BP	2.65 ± 17.4 h·mmHg
CC(F)(F)c1nc2nc(CO)cc(Nc3ccc(S(F)(F)(F)(F)F)cc3)n2n1	LC-MS/MS	malaria patients, plasma	oral, 250 mg of parent drug	–	half-life, metabolite	101 h
CCNCCCNC/C=C\CNCCCNCC	LC-MS/MS	human cancer patients, plasma	intravenous infusion 60 min, 100 mg, median, cycle 1	–	AUMC(0-inf)	506 ng·h²/mL
Cc1ccc(Sc2ccccc2N2CCNCC2)c(C)c1	measured: ALT increased	healthy adult men	oral, 10 mg daily, 12 days	–	participants with TEAE	0%
CC1(CNC(=O)c2ccc(C#CC#Cc3ccccc3)cc2)NC(=O)NC1=O (stereo not drawn)	–	aqueous buffer	pH 7.4	–	thermodynamic solubility	< 7.14 µM
O=C(O)CCCOc1ccc([18F])cc1-c1cc(-c2ccccc2C(F)(F)F)n(-c2ccccc2)n1	gamma counting	male ddY mice, brain	intravenous, 2.1 MBq, 60 min	–	radioactivity uptake	0.23 ± 0.05 SUV
CC(C)=CCC/C(C)=C/C(=O)O.Cc1cc(/C=C/C#N)cc(C)c1Nc1ccnc(Nc2ccc(C#N)cc2)n1	–	Peceol	–	–	kinetic solubility	< 50000 µg/mL

SMILES	test	test system	conditions	how to read	endpoint	value
Cc1nn(CC(F)(F)F)cc1Nc1ncc(C2CC2)c(NCc2ccc(S(N)(=O)=O)cc2)n1	PAMPA	PBS	5 h, pH 7.4	–	PAMPA permeability	not detected
NC(=O)N1c2ccccc2C=Cc2ccccc21	measured: general and administration site (SOC)	human male	oral, dose not given, CTCAE on-treatment AEs	–	adverse events incidence	27%
C/C(=N\c1ccc(O)cc1)c1cc2ccccc2n1C	–	rat plasma	50 ng/mL, time not given, 3 freeze-thaw cycles	reference: nominal	remaining compound	112 ± 5.5%
CCN1CCN(Cc2ccc(Nc3ncc(F)c(-c4cc(F)c5nc6n(c5c4)[C@H](C)CCC6)n3)nc2)CC1	–	human, plasma	300 mg single dose, mean	–	CL/F	32 L/h
C[C@H]1CN(C(=O)CC#N)[C@]12CCN(c1ncnc3[nH]ccc13)C2	–	healthy adults, plasma	oral, 6 mg single dose	–	half-life, median or range	2.8 h
CCc1ccc(-c2ccc(-c3cc(F)c(F)c(F)c3)c(F)c2)cc1	–	rat, fetus	5000 ng/mL in perfusate, high dose, mixture of 21 LCMs	–	median fetal accumulation	0.562 ng/g
CSc1ccccc1C(=O)NCCn1cc(C(=O)NCc2cccc(C)n2)c(=O)c2cc3c(cc21)OC(F)(F)O3	–	Sprague-Dawley rat, male, plasma	intramuscular, 3 mg/kg of parent drug	–	Cmax	4.95 ± 1.31 ng/mL
Cc1nc2cccc(OCC(C)(C)C(=O)NC(C)C)c2c(N)c1C(=O)O	–	Sprague-Dawley rat, plasma	intravenous, 1 mg/kg, day 1	reference: female over male	AUClast ratio	1.25 ± 0.41
CCn1ncc2c1-c1cnc(N)c(c1)O[C@H](C)c1cc(F)ccc1-c1nn(C)nc1C2	–	female athymic nude mice, sample A PDX	oral, 5 mg/kg once daily for 1 days, 12 h	–	unbound plasma trough concentration	88 ± 61 nM
CC1(CNC(=O)[C@H](CN)NC(=O)c2ccc(-c3ccc(Br)cc3)cc2)NC(=O)NC1=O (stereo partly drawn)	–	aqueous buffer	pH 7.4	–	thermodynamic solubility	329 µM (≈ 161 µg/mL)
Nc1ncn([C@H]2C[C@H](O)[C@@H](CO)O2)c(=O)n1	–	mouse plasma	80 ng/mL, -80 °C, three freeze-thaw cycles, no THU	–	mean deviation from nominal	7.63%
N#CC1CCCN(c2nc(-c3ccccn3)nc3ccccc23)C1 (stereo not drawn)	–	Japanese Pharmacopoeia disintegration test solution 2	pH 6.8	–	kinetic solubility	77 µg/mL (≈ 244 µM)
COc1ncc(-c2nc3c(n2C(C)C)[C@H](c2ccc(Cl)cc2)N(c2cc(Cl)cn(C)c2=O)C3=O)c(OC)n1	LC-MS/MS, noncompartmental	human, plasma	oral, 150 mg, C1D1, high-dose, geometric mean	–	Cmax	1440 ng/mL
COc1ccc([C@@H](O)c2cc(-c3ncnc4cc(N5CCOCC5)ccc34)c(F)cc2Cl)nn1	–	locally advanced rectal cancer patients	250 mg, with: capecitabine and radiotherapy	–	drug-related nausea incidence	17%
CCN1CCN(Cc2ccc(NC(=O)c3ccc(C)c(NC(=O)c4cncc(-c5cccs5)c4)c3)cc2C(F)(F)F)CC1	–	C57BL/6 mice, plasma	intraperitoneal, 20 mg/kg	–	extrapolated AUC share	9.88%
COc1ccc2c(=O)n(C)c(-c3ccccc3)nc2c1	–	Sprague-Dawley rat, male, brain	oral, 30 mg/kg, 0.5 h	reference: brain over plasma	tissue/plasma ratio	0.63
CNC(=O)c1ccc(-c2cnc3ncc(Cc4ccc5ncccc5c4)n3n2)cc1F	measured: Pruritus	other cancer patients	oral, 600 mg twice daily, expansion cohort, grade 3-4	–	patients with adverse event	0%
CCCCc1ccc(C#Cc2ccc(OCC)cc2)cc1	–	rat, placenta	1000 ng/mL in perfusate, middle dose, mixture of 21 LCMs	–	median placental accumulation	3.28 ng/g
CCN(CC)Cc1ccc2cc(COC(=O)Nc3ccc(C(=O)NO)cc3)ccc2c1	–	rat plasma	3200 ng/mL, 21 days, -80 °C	reference: nominal concentration	stability relative error	101%
CC(C)(C(=O)N1CCOc2c(C#N)cncc2C1)C(F)F	measured: Dermatitis	human	oral, 20 mg twice daily, 14 days, multiple ascending dose	–	subjects with adverse event	0%
CNC(=O)c1ccc(-c2cnc3ncc(Cc4ccc5ncccc5c4)n3n2)cc1F	–	healthy human subjects	oral, 400 mg, all grades, all causality, with: rifampicin 600 mg/day	–	abdominal discomfort incidence	7.7%
O=c1c2ccccc2oc2ccccc12	–	tricaprin-tricaprylin mixture	60 °C, tricaprin fraction 0.77	–	solubility	0.0693 mole fraction
CCn1cc(C(=O)N2CCOCC2)c(=O)c2cc(NC3Cc4ccccc4C3)cnc21	–	human, fasted, plasma	oral, 1200 mg single dose, tablet, arithmetic mean	–	AUC(0-last)	36800 ng·h/mL
COc1ccc2c(c1)CN(C(=O)CCN1CCC(Cc3ccccc3)CC1)CC[S@@+]2[O-]	–	dog plasma	1000 ng/mL	–	fu	0.292
Cc1nc(-c2ccc(OCC(C)C)c(C#N)c2)sc1C(=O)O	–	KM mouse, chronic hyperuricaemia model	dose not given, day 28	–	body weight	38.6 g and 36 g and 45 g and 34.2 g and 40.4 g and 41.4 g
CN1CCN(c2cccc3c2CCN(C(=O)/C=C/c2c(-n4cnnn4)ccc(Cl)c2F)[C@@H]3C(=O)Nc2ccc(C(=O)O)cc2)C(=O)C1	–	healthy human subjects	intravenous infusion, 3 mg/h, 5 days	–	subjects with skin irritation	0%
CCOCc1nc(O)c(-c2nnc(Cc3ccc(Cl)cn3)o2)c(O)c1-c1c(OC)cccc1OC	–	rat, anaesthetised, cannulated, plasma	intravenous infusion, 100 µg/kg/min, 30 min after infusion stop, washout	–	plasma concentration	10.7 µM
